Experimental data gathered from unrelated publications.
Protocols differ between the studies behind these lines. Values joined by “and” are separate records of one study, mostly repeats; a detail may differ. Numbers after ± are the reported error.

NCC(=O)Nc1ccc(Sc2ccc3c(/C=C/c4ccccn4)n[nH]c3c2)cc1 — GI50 (BaF3; cell growth or viability, CCK-8): 3390 nM
CC12CCCC(n3cc(CN4CCS(=O)(=O)CC4)nn3)(C1)C1CC(C)(C)C1CC2 (stereo not drawn) — inhibition (HT-29; cell growth or viability, CCK-8; 10 µM): < 50%
COc1ccccc1-c1ccncc1C(=O)Nc1nnc(OCc2ccc(Cl)cc2)s1 — colony count (MDA-MB-436 BRCA1-mutant; 6 µM): 7 and 11 and 6 and 12 and 13
CN1CCCNC(=O)c2cccc(c2)C(=O)NCCCN(C)CCCNc2cccc3c2C(=O)c2cccc(c2C3=O)NCCC1 — log2 fold change (SAS; RNA-Seq, measured: CTPS1 mRNA; 1 µM, 6 h; baseline: untreated cells): -1.13
CC(=O)N[C@@H](CO)C(=O)N[C@H](C(=O)N1CCC[C@H]1C(=O)N[C@@H](CC(=O)O)C(=O)COC(=O)c1c(C)cccc1C)C(C)(C)C — cell lysis (THP-1 cells, LPS-primed; pyroptosis, LDH release; 25 µM, LPS 1 µg/mL, 4 h, with: nigericin 5 µM, 2 h): 45.8% and 43.2%
Cc1cc(C)c2c(Cn3ccnc3)cc(=O)oc2c1 — calcium mobilisation signal (COS-7 (untransfected); 500 µM, unit not given; baseline: 3 µM ionomycin): 1.09 ± 2.05
O=C(c1ccc([C@H]2[C@@H](F)[C@@H](F)C[C@@H](F)[C@H]2F)cc1)N1CCCC1 — hepatic clearance (hepatocyte stability; cryopreserved human hepatocytes; 1 µM): 14 mL/min/kg
N#C[C@@H]1CC(F)(F)CN1C(=O)CNC(=O)c1ccnc2ccc(OCCCN3CCN(C(=O)CCc4ccc(O)c(CN5CCN6CC(=O)[O][Al-]([18F])([O]C(=O)C5)[O]c5ccc(CCC(=O)N7CCN(CCCOc8ccc9nccc(C(=O)NCC(=O)N%10CC(F)(F)C[C@H]%10C#N)c9c8)CC7)cc5C6)c4)CC3)cc12 (stereo partly drawn) — internalized fraction (HT1080 cells expressing human FAP; 15 min, 37 °C): 74.8 ± 2.8%
Cc1ncsc1-c1ccc(C(C)NC(=O)C2CC(O)CN2C(=O)C(NC(=O)CCCCCCCCCCN2CCCC(Nc3ncc(Cl)c(Nc4ccccc4S(=O)(=O)C(C)C)n3)C2)C(C)(C)C)cc1 (stereo not drawn) — log2 fold change (22Rv1; RNA-seq, measured: MYRIP mRNA; concentration not given; baseline: DMSO): -1.02
O=C(c1ccc(C2CCCCC2)cc1)N1CCC(F)CC1 — hepatic clearance (liver microsome stability; dog liver microsomes; 1 µM): 24 mL/min/kg
CCN(CC)CC(=O)Nc1cccc(-n2cc(-c3ccc4ccc(-c5cn(-c6cccc(NC(=O)CN(CC)CC)c6)nn5)cc4c3)nn2)c1 — fold regulation (RCC4; PCR array, measured: F3; 5 x IC50, 2 h, normoxia; baseline: untreated): -1.37
CCc1c(-c2ccc3[nH]ncc3c2)cnc(N)c1-c1ccc(O)cc1 — viability (CHP-212 resistant sublines, USP7 V517F heterozygous; 0.3906 µM): 110%
COc1ccccc1CNC[C@](O)(COCc1ccccc1)[C@@H]1CC[C@@H](C)C[C@H]1OCc1ccccc1 — inhibition (A2780; cell growth or viability, MTT; 10 µM, 72 h): 90.1%
CCC(=CCc1c(O)cc2c(c1O)C(=O)CC(c1cccc(O)c1)O2)CC (stereo not drawn) — inhibition (HeLa; cell growth or viability, MTT; 0.781 µM, 48 h): 2.32%
O=S(=O)(Nc1ccc(OC(F)(F)F)cc1)N1CCCC(C2c3ccccc3CCc3ccccc32)C1 (stereo not drawn) — protein level (D341; immunoblot, measured: CIP2A; concentration not given): decreased
CCC(=CCc1c(O)cc2c(c1O)C(=O)CC(c1cccc(O)c1OC)O2)CC (stereo not drawn) — inhibition (HeLa; cell growth or viability, MTT; 12.5 µM, 48 h): 26.7%
CC12CCCC(NC(=O)c3ccc([N+](=O)[O-])cc3)(C1)C1CC(C)(C)C1CC2 (stereo not drawn) — inhibition (HT-29; cell growth or viability, CCK-8; 300 µM): 62.4%
O=C1CCCC2=C1C(c1c[nH]c3ccccc13)c1cc(Br)ccc1O2 (stereo not drawn) — mean lipid content (3T3-L1 mature adipocytes; lipolysis, Oil Red O staining; IC20): 0.665 OD492
CC(=O)N[C@@H](CC(=O)O)C(=O)N[C@@H](CCC(=O)O)C(=O)N[C@H](C(=O)N[C@@H](CC(=O)O)C(=O)COC(=O)c1c(C)cccc1C)C(C)C — cell lysis (THP-1 cells, LPS-primed; pyroptosis, LDH release; 25 µM, LPS 1 µg/mL, 4 h, with: nigericin 5 µM, 2 h): 25.4%
NC(=O)c1ccc(-c2ccccc2Cl)c2c3c([nH]c12)CC[C@@H](N)C3 — IC50 (K562 parental; cell proliferation): 13.9 nM
CNS(=O)(=O)Nc1nccc(Cc2c(C)c3ccc(Oc4ncccc4F)cc3oc2=O)c1F — IC50 (A101D; cell viability; 7 days): 5.46 nM

A few entries again:
Cc1ncsc1-c1ccc(C(C)NC(=O)C2CC(O)CN2C(=O)C(NC(=O)CCCCCCCCCCN2CCCC(Nc3ncc(Cl)c(Nc4ccccc4S(=O)(=O)C(C)C)n3)C2)C(C)(C)C)cc1 (stereo not drawn) — log2 fold change (22Rv1; RNA-seq, measured: MYRIP mRNA; concentration not given; baseline: DMSO): -1.02
CC(=O)N[C@@H](CC(=O)O)C(=O)N[C@@H](CCC(=O)O)C(=O)N[C@H](C(=O)N[C@@H](CC(=O)O)C(=O)COC(=O)c1c(C)cccc1C)C(C)C — cell lysis (THP-1 cells, LPS-primed; pyroptosis, LDH release; 25 µM, LPS 1 µg/mL, 4 h, with: nigericin 5 µM, 2 h): 25.4%
